Published values gathered from unrelated publications.
Numbered parts are unrelated; each lists some results of a single study. Substitutions count along the parent as printed.

Sample 1
Target: UBE2U UBC core domain (UniProt Q5VVX9)
Technique: yeast two-hybrid
Matrix: yeast
Setting: mostly zero background
Relative to: not given
Reading: higher = stronger interaction
Quantity: lacZ reporter activity
B1: RC3H2 RING domain (UniProt Q9HBD1); chain QAAQWTEFLSCPICYNEFDENVHKPISLGCSHTVCKTCLNKLHRKACPFDQTAINTDIDVL
B2: TRIM8 RING domain (UniProt Q9BZR9); chain WKNCFEEELICPICLHVFVEPVQLPCKHNFCRGCIGEAWAKDSGLVRCPECNQAYNQKPGLE
B3: CUL9 RING domain (UniProt Q8IWT3); chain AQAVPVRPDHCPVCVSPLGCDDDLPSLCCMHYCCKSCWNEYLTTRIEQNLVLNCTCPIADCPAQPTGAFIR
B4: PHF21A RING domain (UniProt Q96BD5); chain SPTSTDGDIHEDFCSVCRKSGQLLMCDTCSRVYHLDCLDPPLKTIPKGMWICPRCQDQMLKKEEAIPW
B5: TRIM72 RING domain (UniProt Q6ZMU5); chain APGLLHQELSCPLCLQLFDAPVTAECGHSFCRACLGRVAGEPAADGTVLCPCCQAPTRPQALST
B6: MID1 RING domain (UniProt O15344); chain METLESELTCPICLELFEDPLLLPCAHSLCFNCAHRILVSHCATNESVESITAFQCPTCRHVITLSQRGL
Target sequence (chain): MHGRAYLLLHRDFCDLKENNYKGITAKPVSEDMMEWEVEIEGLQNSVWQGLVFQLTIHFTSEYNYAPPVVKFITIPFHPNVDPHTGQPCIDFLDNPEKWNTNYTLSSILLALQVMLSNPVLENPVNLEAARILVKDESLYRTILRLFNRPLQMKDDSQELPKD
B1 (RC3H2 RING domain): 0
B2 (TRIM8 RING domain): 8600
EDEVSDNSAECVVCLSDVRDTLILPCRHLCLCNTCADTLRYQANNCPICRLPFRALLQIR (RNF157 RING domain (UniProt Q96PX1)): 2090
B3 (CUL9 RING domain): 0
B4 (PHF21A RING domain): 0
DAIPSLSECQCGICMEILVEPVTLPCNHTLCKPCFQSTVEKASLCCPFCRRRVSSWTRYH (RNF168 RING domain (UniProt Q8IYW5)): 8530
QLQDIKEQTMCPVCLDRLKNMIFLCGHGTCQLCGDRMSECPICRKAIERRILLY (MIB1 RING domain (UniProt Q86YT6)): 8790
B5 (TRIM72 RING domain): 7970
B6 (MID1 RING domain): 4880
FASPPDSNFVCSVCHGVLKRPARLPCSHIFCKKCILRWLARQKTCPCCRKEVKRKKVVH (RNF151 RING domain (UniProt Q2KHN1)): 0
DDENSDNSNECVVCLSDLRDTLILPCRHLCLCTSCADTLRYQANNCPICRLPFRALLQIR (MGRN1 RING domain (UniProt O60291)): 0

Sample 2
Target: Transcriptional repressor CTCF (CTCF, Homo sapiens, UniProt P49711, residues 1-727, full length assumed)
Technique: protein-binding microarray
Form: double-stranded DNA, one strand shown
Matrix: in vitro
Concentration: not given
Setting: k-mer, scored over probes, only values ≥0.25
Reading: higher = stronger binding
Quantity: E-score
Target sequence (chain): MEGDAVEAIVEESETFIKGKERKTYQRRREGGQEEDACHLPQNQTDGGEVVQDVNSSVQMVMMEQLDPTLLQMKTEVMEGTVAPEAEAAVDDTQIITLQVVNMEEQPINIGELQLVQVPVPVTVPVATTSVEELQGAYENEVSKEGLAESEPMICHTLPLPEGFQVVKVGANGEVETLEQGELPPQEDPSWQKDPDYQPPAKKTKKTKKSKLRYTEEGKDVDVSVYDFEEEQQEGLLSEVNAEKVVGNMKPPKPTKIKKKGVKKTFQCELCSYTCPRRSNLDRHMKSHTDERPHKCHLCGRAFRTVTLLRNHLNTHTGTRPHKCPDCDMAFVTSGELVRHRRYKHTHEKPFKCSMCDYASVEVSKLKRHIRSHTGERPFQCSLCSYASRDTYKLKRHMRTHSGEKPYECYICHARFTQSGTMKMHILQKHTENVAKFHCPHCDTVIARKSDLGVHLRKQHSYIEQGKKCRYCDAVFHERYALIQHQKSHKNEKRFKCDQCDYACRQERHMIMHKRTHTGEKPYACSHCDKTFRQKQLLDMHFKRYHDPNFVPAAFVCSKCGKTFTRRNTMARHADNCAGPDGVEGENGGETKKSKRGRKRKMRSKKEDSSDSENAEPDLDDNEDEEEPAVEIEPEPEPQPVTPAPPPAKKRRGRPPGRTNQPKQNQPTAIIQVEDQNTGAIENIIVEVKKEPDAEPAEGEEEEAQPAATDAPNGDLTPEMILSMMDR
AAACAACT: 0.257
AAATAATT: 0.306
ATTTATTC: 0.254
ACGTATTA: 0.263
TAGTTAAA: 0.256
AAATAATG: 0.305
CTGCGCAA: 0.315
AAACGCCA: 0.252
GTTAATTA: 0.275
CATACACA: 0.273
ATGATACA: 0.27
ATTAGCGC: 0.318
AGATGTAT: 0.336
ATTTTACC: 0.291
GATGCGCA: 0.382
AGGCGTAT: 0.261
GAAATTAC: 0.263
CCTAATAA: 0.277
CGCATACA: 0.292
AAATACGA: 0.296
AATAACAG: 0.256
GAATTATA: 0.324
AATATTGT: 0.281
AATATACT: 0.304
ACTATATA: 0.311

Sample 3
Target: ABI1, truncated, D143A, DHFR fusion (Arabidopsis thaliana)
Technique: DHFR PCA, deep sequencing
Matrix: yeast
Setting: methotrexate growth selection, single substitutions
Added: (+)-ABA 1.4 µM
Relative to: wild-type fitted maximum
Reading: higher = stronger binding
Quantity: relative binding score
Starting sequence: PYL1, truncated, DHFR fusion (Arabidopsis thaliana); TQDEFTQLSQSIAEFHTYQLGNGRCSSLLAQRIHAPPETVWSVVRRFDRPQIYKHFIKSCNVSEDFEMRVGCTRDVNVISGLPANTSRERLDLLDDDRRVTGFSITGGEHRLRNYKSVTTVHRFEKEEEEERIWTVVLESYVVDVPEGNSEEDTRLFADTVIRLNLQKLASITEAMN; partner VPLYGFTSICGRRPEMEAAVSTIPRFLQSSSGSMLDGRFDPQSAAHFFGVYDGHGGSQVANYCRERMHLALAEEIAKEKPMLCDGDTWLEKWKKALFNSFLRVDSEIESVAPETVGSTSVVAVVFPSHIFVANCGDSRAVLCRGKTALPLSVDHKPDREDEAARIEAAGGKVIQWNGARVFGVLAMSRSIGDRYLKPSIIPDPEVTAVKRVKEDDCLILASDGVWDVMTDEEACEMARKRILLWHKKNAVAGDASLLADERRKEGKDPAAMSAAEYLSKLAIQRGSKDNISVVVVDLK
W41C: -2.14%
L94Y: 23.5%
F5K: 9.32%
R90M: 8.61%
D92E: 27.5%
G23T: 18.4%
R88T: 66.9%
Q10K: 71.4%
R90I: 0.099%
R163V: 15.2%
E125H: 66.7%
V118S: 5.72%
D75I: 76.2%
G108L: -7.94%
S117R: -11.9%
R111A: -4.95%
P50D: -8.31%
N77S: 70.3%

Sample 4
Target: TAR DNA-binding protein 43, full length, His tag (TARDBP, Homo sapiens, UniProt Q13148, residues 1-414)
Technique: RNA Bind-n-Seq
Form: RNA
Matrix: in vitro
Concentration: 20 nM
Setting: 6-mer, flanks averaged, single round
Added: 150 mM LiCl
Relative to: input library
Reading: higher = stronger binding
Quantity: 6-mer enrichment (R)
CUACCG: 0.835
CGCUUU: 0.99
AUUCCG: 0.865
CUGCCC: 1.05
UUGAUA: 0.957
UCAGCU: 0.844
UCCGUA: 0.856
GCACCG: 0.945
GUCCCA: 0.926
UGUGUU: 1.95
CUCAUU: 0.963

Sample 5
Target: RNA binding protein fox-1 homolog 2, RRM domain, GST-SBP tag (RBFOX2, Homo sapiens, UniProt O43251-10, residues 100-194)
Technique: RNA Bind-n-Seq
Form: RNA
Matrix: in vitro
Concentration: 365 nM
Setting: natural RNA segment, single round, ends assumed
Relative to: no-protein control
Reading: higher = stronger binding
Quantity: RBNS enrichment (R)
Residues (chain): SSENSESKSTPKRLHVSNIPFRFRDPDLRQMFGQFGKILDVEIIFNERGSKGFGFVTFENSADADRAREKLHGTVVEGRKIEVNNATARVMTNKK
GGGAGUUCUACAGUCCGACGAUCUAUGUAAAAUAUGUAUGAAGAAAAGGUGUACAAAAAUUUGCCCUUAUGCACGGAACUCUGUUUCUAAGUGCCAAGCACAGAAAGCCGCUAAAUAAAAUCUUUGCAAUUGUUGGAAUUCUCGGGUGCCAA: 1.06
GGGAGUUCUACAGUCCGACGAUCAAUAUCUAUAAAAUAGAUAUAAAUUUUUAAAAUAGUUUAGUAUCAUCAAAGAAAAAAUAAGUAGUAUUUAAGAUGUGAAAAAUGAACAACCUAAAAUAUAUUUUCCAAGCUGGAAUUCUCGGGUGCCAA: 0.959
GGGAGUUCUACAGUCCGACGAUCAUCUCUGAAUCCUUUUAAUCUAGAGAAGGCAUUUCAUAUUUGGGGGCUAAGGUUUCCAGUCAGAUGAGGCAAACAGCAAGAGUAAGCAGUGUUACUUGCAGGUACUUUGGUGGAAUUCUCGGGUGCCAA: 0.512
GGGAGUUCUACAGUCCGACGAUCCUUCUCAUUUAUACAGUGCCUUUUUCUCAUGCUCAUUGUCUACUGACUUUAAGGCAGGCAACACUGGACCAUAGUGGUGCAGGCCUUCUAUUGAGGCCAGAGGAGCAAGUUGGAAUUCUCGGGUGCCAA: 0.289
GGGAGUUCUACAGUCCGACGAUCUCCAGGUUACAAAGUUCUCCUCAUAGGUGGAAAGGUUUACUGCAGUGUUAUCCUCUAAGUGUGAUAAACUGUGCUUUACCGCUCCGAACACUCAGGACUCCGUGUGUAUCUGGAAUUCUCGGGUGCCAA: 0.321
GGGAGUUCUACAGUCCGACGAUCCAUGGAAAAAAUUUUCCAUCCACAAAUACAAACAUGAAUAAAUACAUUCAGAAUGUUGGCACCAUGAUGUUGGGCUUUAUUUGCUUUCCUGAGUAGUCCUCUUUCUUGUUUGGAAUUCUCGGGUGCCAA: 0.496
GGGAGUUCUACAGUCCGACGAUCCACACAGCCUCAGACUUACAAACUGAUUAUACUCUAAAAGUUUGUAUGUCAGUUAGCUAAAACUUCAGAAUACAUUUCUCCCUAUAAAGAGUUAUAAAUGAUGGUUUAGUUGGAAUUCUCGGGUGCCAA: 0.338
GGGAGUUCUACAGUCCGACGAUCUACUUAUGGUGAAAGAGGACAUUUUUUUUUUCUUCAGGAUAGUUGAAAGGGCAGGCCCAACGGCUGAGAUUGACAUUUCCACUGUUGGUAGAGAGCUGUUAUUUCUAAAGUGGAAUUCUCGGGUGCCAA: 0.273
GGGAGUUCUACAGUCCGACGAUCUUCCUGCCAGAAACGACCCUCUGUGGCCGAUGGGCCAUGCGGGCCCCUCGCAGCCAACUCAGCCAGUGUUGGGACUGGCUCAGAGCCCAUGGGGGCUGGAGGGGGGCAGCUGGAAUUCUCGGGUGCCAA: 0.699
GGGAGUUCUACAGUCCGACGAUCGUGCCACUGCUGUUGUCUGCUCAUUGUCCUGCCUGUUGCUCAUUAUAGCCCCUGUCCUUCAUGUGUCUGGCCAUGUAGACUCUCAGGCAUCCUGUCCAUUUUUAACCUGUUGGAAUUCUCGGGUGCCAA: 0.897
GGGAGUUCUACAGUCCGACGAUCAUUUUCUAUUCCUAACAGCUUCCCGUGGGAAAAGUAAGCUGUUGAUCUCUUUGGCAAUUGUUCUCUGCCAGAGUCUUAAGUAUGUGUCUUUGAUACUCCUUGAAAAUUAAUGGAAUUCUCGGGUGCCAA: 1.2
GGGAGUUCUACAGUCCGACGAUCACCAGAGUUCUUAAGUGGCCCAGUUGUGGAGCCAAGUCUAAGUCGUGUGGAGUCAGUGCUGACAUCACUGGCUUGUGCUGUCUGUCACAUGUGUUUGUCUCUGCUGCUUGUGGAAUUCUCGGGUGCCAA: 0.611

Sample 6
Target: CCNB3, cyclin fold, Cln2 fusion (human)
Technique: yeast growth competition, sequencing
Matrix: yeast
Setting: weak parent motif
Relative to: not given
Reading: higher = stronger binding
Quantity: normalised enrichment score
Starting sequence: WEE1 docking peptide (human); HKTFRKLRLFDTP; partner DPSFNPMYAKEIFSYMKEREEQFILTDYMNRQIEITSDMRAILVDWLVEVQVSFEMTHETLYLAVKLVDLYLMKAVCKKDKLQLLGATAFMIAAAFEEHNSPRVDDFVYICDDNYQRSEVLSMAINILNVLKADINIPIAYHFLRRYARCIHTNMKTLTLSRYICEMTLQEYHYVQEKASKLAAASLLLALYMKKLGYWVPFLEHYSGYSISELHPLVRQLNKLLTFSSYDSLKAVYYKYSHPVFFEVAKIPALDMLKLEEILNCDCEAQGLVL
HKTFRKLRPFDTP [L9P]: 0.0224
HKTNRKLRLFDTP [F4N]: 0.0712
HKTFRKLRLWDTP [F10W]: -0.00557
HKWFRKLRLFDTP [T3W]: -0.572
HKYFRKLRLFDTP [T3Y]: -1.28
HKTFNKLRLFDTP [R5N]: -4.02
HKSFRKLRLFDTP [T3S]: -0.448
HKKFRKLRLFDTP [T3K]: -0.259
HKTFRKDRLFDTP [L7D]: -0.325
HKTFRKLRLFPTP [D11P]: 0.616
HKTFRKARLFDTP [L7A]: -0.246
HWTFRKLRLFDTP [K2W]: 0.228
HKTFAKARLFDTP [R5A L7A]: 0.568
HKTFRKLRLFCTP [D11C]: 0.693
HKTFRKLRLVDTP [F10V]: -0.192
HNTFRKLRLFDTP [K2N]: 0.185
HRTFRKLRLFDTP [K2R]: 0.249
HQTFRKLRLFDTP [K2Q]: 0.473
HKTFQKLRLFDTP [R5Q]: 0.0195

For quick reference, copied from above (sample 6):
HKYFRKLRLFDTP [T3Y]: -1.28
HKTFNKLRLFDTP [R5N]: -4.02
HKSFRKLRLFDTP [T3S]: -0.448
HKKFRKLRLFDTP [T3K]: -0.259
HKTFRKDRLFDTP [L7D]: -0.325
HKTFRKLRLFPTP [D11P]: 0.616
HKTFRKARLFDTP [L7A]: -0.246
